Measured values gathered from unrelated publications.
Parts stem from different laboratories: compare values within a part only. Substitutions count along the parent as printed.
UniProt P06493, sequence (whole entry, looked up): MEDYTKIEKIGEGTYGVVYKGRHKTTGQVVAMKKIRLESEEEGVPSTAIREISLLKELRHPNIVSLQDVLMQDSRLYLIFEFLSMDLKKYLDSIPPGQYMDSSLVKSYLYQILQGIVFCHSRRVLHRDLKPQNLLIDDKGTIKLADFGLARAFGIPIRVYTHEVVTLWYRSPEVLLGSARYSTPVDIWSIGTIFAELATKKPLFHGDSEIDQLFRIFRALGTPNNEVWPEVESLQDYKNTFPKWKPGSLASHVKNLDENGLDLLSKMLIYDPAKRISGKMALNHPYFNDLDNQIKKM

Set 1 — technique: RNA Bind-n-Seq; molecule type: RNA; medium: in vitro; tested at: 15 pmol; notes: 4-mer, random 30-nt RNA, single round; added: 3 µM RocA, 2 mM AMP-PNP; relative to: mean of 4-mers; direction: higher = stronger binding
Target: Eukaryotic initiation factor 4A-I (EIF4A1, Homo sapiens, UniProt P60842, residues 1-406, full length assumed)
UniProt P60842, sequence (whole entry, looked up): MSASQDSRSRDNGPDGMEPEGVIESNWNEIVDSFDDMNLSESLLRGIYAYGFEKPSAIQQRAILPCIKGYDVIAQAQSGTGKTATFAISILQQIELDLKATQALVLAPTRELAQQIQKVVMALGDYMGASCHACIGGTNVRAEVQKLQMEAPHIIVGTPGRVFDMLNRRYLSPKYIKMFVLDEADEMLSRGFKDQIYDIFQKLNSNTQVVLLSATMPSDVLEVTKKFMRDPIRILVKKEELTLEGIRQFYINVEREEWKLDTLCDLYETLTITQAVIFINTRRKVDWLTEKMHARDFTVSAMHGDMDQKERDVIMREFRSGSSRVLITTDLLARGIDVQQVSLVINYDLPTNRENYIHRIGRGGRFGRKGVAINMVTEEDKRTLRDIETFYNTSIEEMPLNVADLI
Under “4-mer enrichment Z-score”, `CGUC` is recorded as -1.06.
For `UAGA`, “4-mer enrichment Z-score” read 0.943.
For `GUAU`, “4-mer enrichment Z-score” read 0.604.
`GUCU`: “4-mer enrichment Z-score” -0.553.
`CUUG` — result for “4-mer enrichment Z-score”: -0.425.
Under “4-mer enrichment Z-score”, `GCGU` is recorded as 0.646.
`CCUA` — result for “4-mer enrichment Z-score”: -0.935.
`UACC` — result for “4-mer enrichment Z-score”: -1.1.

Set 2 — target: CCNB2, cyclin fold, Cln2 fusion (human); technique: yeast growth competition, sequencing; medium: yeast; notes: weak parent motif; relative to: not given; direction: higher = stronger binding
Starting sequence: CDKN1A docking peptide (human); SKACRRLFGPVDS
Under “normalised enrichment score”, `P10E` is recorded as 0.212.
`L7A` — result for “normalised enrichment score”: 0.19.
For `C4E`, “normalised enrichment score” read -0.0116.
Under “normalised enrichment score”, `K2S` is recorded as 0.124.
`F8A`: “normalised enrichment score” 0.217.
For `F8E`, “normalised enrichment score” read -0.654.
`V11I` — result for “normalised enrichment score”: -0.0248.
`D12C` — result for “normalised enrichment score”: 0.586.

Set 3 — technique: protein binding microarray; molecule type: double-stranded DNA, one strand shown; medium: in vitro; tested at: not given; relative to: not given; direction: higher = stronger binding
Target: Histone acetyltransferase KAT6A, both winged helices, GST fusion (KAT6A, Homo sapiens, UniProt Q92794, residues 1-181)
Notes: 8-mer, flanks averaged, mean of 2 arrays, mostly near background
Construct (chain): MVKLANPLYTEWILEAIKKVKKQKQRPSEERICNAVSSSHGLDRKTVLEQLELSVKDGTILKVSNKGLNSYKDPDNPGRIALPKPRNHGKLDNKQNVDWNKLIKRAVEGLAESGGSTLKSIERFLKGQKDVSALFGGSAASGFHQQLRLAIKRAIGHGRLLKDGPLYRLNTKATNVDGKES
For `AATAAGTC`, the E-score was -0.16.
`CTAACCCC` gave an E-score of -0.144.
`CAAGGTGA` has an E-score of -0.206.
With `GCACAGCA` the E-score was -0.0449.
`CTGCCGGA` has an E-score of 0.0813.
For `AGCTGGGA`, the E-score was -0.259.
`CGGGTAAG` gave an E-score of 0.117.
`ACGCTAAG` has an E-score of 0.0582.

Mixed results
For `Nc1nc(Nc2ccc(S(N)(=O)=O)cc2)nn1C(=S)Nc1c(F)cccc1F`, the remaining activity was -1.78% (Cyclin-dependent kinase 1, with cyclin B (CDK1, Homo sapiens, UniProt P06493); enzyme activity, inhibitor; 0.5 µM; relative to: control).

Excerpt of the above (set 1):
`GUCU`: “4-mer enrichment Z-score” -0.553.
`CUUG` — result for “4-mer enrichment Z-score”: -0.425.
Under “4-mer enrichment Z-score”, `GCGU` is recorded as 0.646.
